Measured values from different studies.
Each line is one published result; not all experiments were run side by side. Values joined by “and” are separate records of one study, mostly repeats; a detail may differ.
Organism: Pseudomonas aeruginosa

Compound = O=C(NCc1cc(Br)cc(Br)c1OC(=O)c1ccccc1[N+](=O)[O-])c1ccccc1Cl; test = elastin-Congo red; system = PAO1 wild type; setting = 100 µM, 20 h; endpoint = elastase production; result = 140%
Compound = CC(C)c1ccc2c(c1)CCC1C(C)(CN(CC(O)C[N+](C)(C)C)CC(O)C[N+](C)(C)C)CCCC21C (centres unmarked); test = microbial growth, disc diffusion; system = ATCC27853; setting = 250 µg/disc, 24 h; endpoint = inhibition zone; result = 11 mm
Compound = O=C(Oc1cccccc1=O)c1ccc([N+](=O)[O-])cc1; test = microbial growth, broth dilution; system = ATCC27853; endpoint = MIC80; result = > 71.4 µM
Compound = CCCC(O)c1nn[nH]c1-c1ccc(O)c(OC)c1 (centres unmarked); test = microbial growth, absorbance; setting = 100 µM, 24 h; endpoint = activity vs control; result = 93%
Compound = CCCCCCCC(=O)Oc1c(C)c(OC)c2c(/C=C/c3ccccc3)c(CCCCCC)c(=O)oc2c1C; test = microbial killing, broth dilution; system = ATCC27853; endpoint = MBC; result = > 5000 µg/mL
Compound = CC[C@H](C)[C@H](NC(=O)[C@@H]1CCCN1C(=O)[C@H](CCSC)NC(=O)[C@H](CC(C)C)NC(=O)[C@H](Cc1ccccc1)NC(=O)[C@H](Cc1ccc(O)cc1)NC(=O)[C@@H]1CCC(=O)NCC(=O)NCC(=O)NCC(=O)NCC(=O)N2CCC[C@H]2C(=O)N[C@@H]([C@@H](C)O)C(=O)N2CCC[C@H]2C(=O)N1)C(=O)N[C@@H](CC(=O)O)C(=O)N1CCC[C@H]1C(=O)N[C@@H](C)C(=O)N[C@@H](Cc1c[nH]c2ccccc12)C(=O)N[C@@H](CC(C)C)C(=O)N[C@@H](CCC(N)=O)C(=O)N[C@@H](C)C(=O)N[C@@H](CC(N)=O)C(=O)N[C@@H](CC(C)C)C(=O)N1CCC[C@H]1C(=O)N[C@@H](CC(N)=O)C(=O)N[C@H](C(=O)NCC(=O)N[C@@H](CCCCN)C(=O)N[C@@H](Cc1ccc(O)cc1)C(=O)N[C@@H](CC(N)=O)C(=O)O)[C@@H](C)O; test = spot-on-lawn; system = PAO1; setting = concentration not given, 37 °C; endpoint = antimicrobial activity; result = inactive
Compound = CCCCCC(=O)Oc1c(C)c(OC)c2c(c1C)OC(=O)[C@@H](CCCC)[C@]2(O)/C=C/c1ccccc1 (relative stereo); test = microbial killing, broth dilution; system = ATCC27853; endpoint = MBC; result = > 5000 µg/mL
Compound = CC(CCCOC(=O)CCC[N+](C)(C)C)C1CCC2C3CCC4CC(OC(=O)CCC[N+](C)(C)C)CCC4(C)C3CCC12C (centres unmarked); test = microbial growth, disc diffusion; system = ATCC27853; setting = 31.2 µg/disc, 24 h; endpoint = inhibition zone; result = 9 mm
Compound = OB(O)c1ccc(C(F)(F)F)s1; setting = 100 µM, 10 h; scale = reference: untreated; endpoint = growth; result = 106% and 88.2% and 97% and 97.6% and 103%
Compound = CCCCCCCCCNC(=O)CC(=O)c1ccccc1; test = elastin-Congo red; system = PAO1 wild type; setting = 100 µM, 20 h; scale = reference: DMSO; endpoint = elastase production; result = 44.3%
Compound = COc1c(C)c(O)c(C(=O)C=Cc2ccccc2)c(OC)c1C; test = microbial killing, broth dilution; system = ATCC27853; endpoint = MBC; result = > 5000 µg/mL
Compound = CCCC(=O)C#Cc1ccc(F)c(F)c1; test = RT-qPCR, refers to: lasB; system = biofilm cells; setting = 10 µM, 24 h; scale = reference: untreated; endpoint = mRNA level; result = 73%
Compound = C=CCOc1c(C)c(OC)c(C(=O)/C=C/c2ccccc2)c(OCC=C)c1C; test = microbial killing, broth dilution; system = ATCC27853; endpoint = MBC; result = > 5000 µg/mL
Compound = O=C(CCc1ccc(Br)cc1)N[C@H]1CCOC1=O; test = elastin-Congo red; system = PAO1 wild type; setting = 100 µM, 20 h; endpoint = elastase production; result = 92.2%
Compound = CC(C)[C@H]1NC(=O)[C@H](Cc2ccccc2)NC(=O)[C@@H](C(C)C)NC(=O)[C@@H](C)NC(=O)[C@H](CO)NC(=O)[C@@H](Cc2c[nH]c3ccccc23)NC(=O)[C@@H](CO)NC1=O; test = broth dilution; endpoint = MIC90; result = > 50 µM
Compound = CCCCCCCCCC(=O)CC(=O)Nc1cccc(OC)c1; test = elastin-Congo red; system = PAO1 wild type; setting = 100 µM, 20 h; endpoint = elastase production; result = 12%
Compound = CC[C@H](C)CCCCC(=O)N[C@@H](CCN)C(=O)N[C@H](C(=O)N[C@@H](CCN)C(=O)N[C@H]1CCNC(=O)[C@H]([C@@H](C)O)NC(=O)[C@H](CCN)NC(=O)[C@H](CCN)NC(=O)[C@H](CC(C)C)NC(=O)[C@@H](CC(C)C)NC(=O)[C@H](CCN)NC1=O)[C@@H](C)O; system = BAA-2797, BALB/c mouse peritonitis, liver; setting = dose not given; endpoint = bacterial load; result = 2.83 log CFU and 2.2 log CFU and 2.45 log CFU and 2.3 log CFU and 2.68 log CFU

For quick reference, copied from above:
Compound = C=CCOc1c(C)c(OC)c(C(=O)/C=C/c2ccccc2)c(OCC=C)c1C; test = microbial killing, broth dilution; system = ATCC27853; endpoint = MBC; result = > 5000 µg/mL
